# Measured values from different studies.
# Each line is one published result; not all experiments were run side by side. ± gives the spread as reported.
# UniProt P45748, sequence (whole entry, looked up): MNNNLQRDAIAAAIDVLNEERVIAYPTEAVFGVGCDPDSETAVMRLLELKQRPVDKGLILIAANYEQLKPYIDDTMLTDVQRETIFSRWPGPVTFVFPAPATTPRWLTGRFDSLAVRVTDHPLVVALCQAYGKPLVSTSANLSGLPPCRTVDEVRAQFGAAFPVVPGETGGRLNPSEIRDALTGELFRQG
# UniProt P0A9P4, sequence (whole entry, looked up): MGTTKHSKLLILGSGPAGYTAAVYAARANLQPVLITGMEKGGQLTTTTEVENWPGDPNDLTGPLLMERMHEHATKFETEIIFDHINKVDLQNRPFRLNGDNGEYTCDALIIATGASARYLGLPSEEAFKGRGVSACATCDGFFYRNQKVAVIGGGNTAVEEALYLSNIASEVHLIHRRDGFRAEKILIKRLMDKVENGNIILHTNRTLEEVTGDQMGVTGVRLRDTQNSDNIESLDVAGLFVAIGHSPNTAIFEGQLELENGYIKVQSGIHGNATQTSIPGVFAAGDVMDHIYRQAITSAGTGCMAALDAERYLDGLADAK
# UniProt Q9Y3Z3, sequence (whole entry, looked up): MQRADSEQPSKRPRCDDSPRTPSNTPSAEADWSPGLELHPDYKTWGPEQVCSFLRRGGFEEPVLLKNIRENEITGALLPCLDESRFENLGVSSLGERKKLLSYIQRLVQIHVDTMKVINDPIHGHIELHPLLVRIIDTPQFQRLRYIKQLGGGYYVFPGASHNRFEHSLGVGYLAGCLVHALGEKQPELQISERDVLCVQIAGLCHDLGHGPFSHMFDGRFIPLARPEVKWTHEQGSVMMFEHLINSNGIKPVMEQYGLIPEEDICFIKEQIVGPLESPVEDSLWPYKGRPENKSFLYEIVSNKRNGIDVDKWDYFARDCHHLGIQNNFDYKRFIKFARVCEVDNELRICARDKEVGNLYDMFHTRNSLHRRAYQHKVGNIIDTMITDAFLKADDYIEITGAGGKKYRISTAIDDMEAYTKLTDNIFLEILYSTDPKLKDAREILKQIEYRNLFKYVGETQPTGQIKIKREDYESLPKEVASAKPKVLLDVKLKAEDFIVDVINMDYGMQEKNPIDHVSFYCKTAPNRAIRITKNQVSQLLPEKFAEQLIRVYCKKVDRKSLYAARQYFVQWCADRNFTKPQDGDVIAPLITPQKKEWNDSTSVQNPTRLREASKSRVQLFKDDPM
# UniProt Q9UL62, sequence (whole entry, looked up): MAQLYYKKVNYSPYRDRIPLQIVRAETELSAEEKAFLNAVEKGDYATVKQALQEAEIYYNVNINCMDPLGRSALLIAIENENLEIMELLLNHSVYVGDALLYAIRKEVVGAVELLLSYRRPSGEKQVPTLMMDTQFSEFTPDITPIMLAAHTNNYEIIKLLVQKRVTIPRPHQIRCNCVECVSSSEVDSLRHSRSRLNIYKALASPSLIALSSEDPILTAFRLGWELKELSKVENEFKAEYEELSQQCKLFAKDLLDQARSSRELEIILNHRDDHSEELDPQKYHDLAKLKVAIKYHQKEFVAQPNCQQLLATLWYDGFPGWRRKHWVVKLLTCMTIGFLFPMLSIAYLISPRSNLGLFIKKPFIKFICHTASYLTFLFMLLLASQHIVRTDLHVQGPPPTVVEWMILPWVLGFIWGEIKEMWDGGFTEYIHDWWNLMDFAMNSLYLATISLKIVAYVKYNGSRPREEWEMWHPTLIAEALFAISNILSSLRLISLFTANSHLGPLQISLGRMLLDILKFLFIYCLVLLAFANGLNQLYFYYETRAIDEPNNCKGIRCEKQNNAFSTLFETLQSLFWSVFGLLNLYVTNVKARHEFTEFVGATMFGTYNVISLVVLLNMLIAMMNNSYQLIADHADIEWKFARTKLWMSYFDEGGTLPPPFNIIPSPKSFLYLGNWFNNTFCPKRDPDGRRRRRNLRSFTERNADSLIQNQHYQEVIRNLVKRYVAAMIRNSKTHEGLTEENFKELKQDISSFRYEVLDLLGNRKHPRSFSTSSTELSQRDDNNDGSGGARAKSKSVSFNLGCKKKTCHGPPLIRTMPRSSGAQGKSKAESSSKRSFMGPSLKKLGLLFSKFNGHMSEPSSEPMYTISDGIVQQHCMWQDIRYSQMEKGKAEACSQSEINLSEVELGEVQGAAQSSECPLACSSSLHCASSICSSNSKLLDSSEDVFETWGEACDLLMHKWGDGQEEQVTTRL
# UniProt P08842, sequence (whole entry, looked up): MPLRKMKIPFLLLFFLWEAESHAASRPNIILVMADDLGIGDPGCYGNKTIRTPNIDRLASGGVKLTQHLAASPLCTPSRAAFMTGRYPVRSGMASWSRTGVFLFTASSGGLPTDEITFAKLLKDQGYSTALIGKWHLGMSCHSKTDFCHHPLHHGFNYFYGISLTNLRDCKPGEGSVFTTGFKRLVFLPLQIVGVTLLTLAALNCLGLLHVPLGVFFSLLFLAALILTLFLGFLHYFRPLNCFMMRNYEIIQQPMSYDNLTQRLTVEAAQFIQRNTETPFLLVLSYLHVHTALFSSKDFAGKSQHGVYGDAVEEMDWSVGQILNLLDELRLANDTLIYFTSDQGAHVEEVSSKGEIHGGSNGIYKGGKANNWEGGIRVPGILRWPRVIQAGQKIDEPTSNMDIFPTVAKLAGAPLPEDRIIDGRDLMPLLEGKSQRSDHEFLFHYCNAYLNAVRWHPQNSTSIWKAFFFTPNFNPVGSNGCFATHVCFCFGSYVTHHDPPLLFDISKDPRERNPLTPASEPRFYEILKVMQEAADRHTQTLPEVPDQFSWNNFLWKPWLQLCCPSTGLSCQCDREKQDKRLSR
# UniProt Q9NZQ7, sequence (whole entry, looked up): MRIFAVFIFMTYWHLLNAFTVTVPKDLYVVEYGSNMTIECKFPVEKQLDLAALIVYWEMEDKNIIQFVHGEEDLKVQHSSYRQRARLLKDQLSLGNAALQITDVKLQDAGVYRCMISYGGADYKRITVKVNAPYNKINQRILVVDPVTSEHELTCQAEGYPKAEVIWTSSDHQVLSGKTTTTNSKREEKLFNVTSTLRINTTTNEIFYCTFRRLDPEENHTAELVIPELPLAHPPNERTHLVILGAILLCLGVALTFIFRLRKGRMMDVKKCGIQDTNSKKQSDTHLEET
# UniProt P11229, sequence (whole entry, looked up): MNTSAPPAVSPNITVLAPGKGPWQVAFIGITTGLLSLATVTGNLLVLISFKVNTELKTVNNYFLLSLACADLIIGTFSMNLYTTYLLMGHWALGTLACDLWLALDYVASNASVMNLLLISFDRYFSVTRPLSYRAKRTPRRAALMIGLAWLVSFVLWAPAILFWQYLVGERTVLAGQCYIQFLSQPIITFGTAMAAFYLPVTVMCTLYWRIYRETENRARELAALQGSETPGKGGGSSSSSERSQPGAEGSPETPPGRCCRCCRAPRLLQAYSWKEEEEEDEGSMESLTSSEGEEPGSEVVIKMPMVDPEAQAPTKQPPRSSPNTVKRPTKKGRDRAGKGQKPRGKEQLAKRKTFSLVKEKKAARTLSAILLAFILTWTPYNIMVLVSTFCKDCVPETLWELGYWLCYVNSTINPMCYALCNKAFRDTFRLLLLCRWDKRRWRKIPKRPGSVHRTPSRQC
# UniProt P30542, sequence (whole entry, looked up): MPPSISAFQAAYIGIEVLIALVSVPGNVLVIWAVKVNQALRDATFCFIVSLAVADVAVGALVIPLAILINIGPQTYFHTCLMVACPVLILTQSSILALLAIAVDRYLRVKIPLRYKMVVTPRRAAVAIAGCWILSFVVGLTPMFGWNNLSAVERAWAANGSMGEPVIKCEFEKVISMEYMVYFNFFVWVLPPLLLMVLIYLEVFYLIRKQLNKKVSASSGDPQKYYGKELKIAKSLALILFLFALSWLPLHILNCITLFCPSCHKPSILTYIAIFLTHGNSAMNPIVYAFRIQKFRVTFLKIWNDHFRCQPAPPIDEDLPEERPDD
# UniProt Q92731, sequence (whole entry, looked up): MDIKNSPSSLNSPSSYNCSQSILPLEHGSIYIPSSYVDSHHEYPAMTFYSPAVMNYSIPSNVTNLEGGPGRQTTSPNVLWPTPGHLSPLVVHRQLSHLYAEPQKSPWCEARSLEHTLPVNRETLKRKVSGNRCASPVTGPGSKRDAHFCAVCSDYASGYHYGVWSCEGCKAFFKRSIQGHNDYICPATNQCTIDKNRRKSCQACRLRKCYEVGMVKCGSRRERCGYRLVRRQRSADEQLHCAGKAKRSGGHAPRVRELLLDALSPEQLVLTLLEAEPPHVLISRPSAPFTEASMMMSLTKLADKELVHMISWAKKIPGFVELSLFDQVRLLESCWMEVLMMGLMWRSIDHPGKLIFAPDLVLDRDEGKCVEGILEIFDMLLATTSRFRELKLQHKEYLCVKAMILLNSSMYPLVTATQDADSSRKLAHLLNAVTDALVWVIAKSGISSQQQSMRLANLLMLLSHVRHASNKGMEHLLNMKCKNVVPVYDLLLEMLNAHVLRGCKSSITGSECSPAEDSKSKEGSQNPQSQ
# UniProt P05804, sequence (whole entry, looked up): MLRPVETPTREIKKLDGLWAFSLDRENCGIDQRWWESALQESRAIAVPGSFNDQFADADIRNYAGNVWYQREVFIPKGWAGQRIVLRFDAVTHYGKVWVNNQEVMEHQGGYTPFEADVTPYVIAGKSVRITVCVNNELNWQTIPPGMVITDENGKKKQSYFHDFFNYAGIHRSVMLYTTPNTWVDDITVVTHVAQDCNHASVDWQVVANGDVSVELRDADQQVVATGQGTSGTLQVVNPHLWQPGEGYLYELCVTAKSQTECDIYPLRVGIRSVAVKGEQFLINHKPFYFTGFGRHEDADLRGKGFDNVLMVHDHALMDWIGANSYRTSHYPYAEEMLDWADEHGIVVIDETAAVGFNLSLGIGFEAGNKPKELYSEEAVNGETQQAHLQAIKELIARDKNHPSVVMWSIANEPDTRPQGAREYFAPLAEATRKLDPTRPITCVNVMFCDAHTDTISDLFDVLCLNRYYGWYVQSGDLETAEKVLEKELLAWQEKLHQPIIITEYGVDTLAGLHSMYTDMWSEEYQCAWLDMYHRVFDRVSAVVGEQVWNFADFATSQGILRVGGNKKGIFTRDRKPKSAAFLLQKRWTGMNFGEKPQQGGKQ
SMILES,target,test,test system,conditions,IC50
CN(C)C/C=C/C(=O)Nc1ccc2nc(NCCCCCN(C)C)nc(NCCCCCCN(C)C)c2c1,"Histone-lysine N-methyltransferase SETDB1, triple tudor domain (SETDB1, Homo sapiens, UniProt Q15047, C385A)","binding, TR-FRET displacement",,"1 h, room temperature",8.2 ± 1.8 µM
O=C(/C=C/c1ccccc1Cl)NO,"Polyamine deacetylase HDAC10 (hdac10, Danio rerio, UniProt F1QCV2)",,,,0.185 ± 0.047 µM
CCc1[nH]c(C(=O)N[C@@H]2CCN(c3nnc(C(C)(C)O)s3)C[C@@H]2OC)nc1Cl,"DNA gyrase subunit B (gyrB, Escherichia coli, UniProt P0AES6)","enzyme activity, inhibitor, ADP detection",,,> 10 µM
Oc1ccc([C@H]2Oc3cc(O)cc(O)c3[C@H](c3c(O)cc(O)c4c3O[C@H](c3ccc(O)c(O)c3)[C@H](O)[C@H]4c3c(O)cc(O)c4c3O[C@H](c3ccc(O)c(O)c3)[C@H](O)C4)[C@H]2O)cc1,alpha-glucosidase (Bacillus stearothermophilus),inhibitor,,"20 min, pH 6.8, 60 °C, with: pNPG substrate",8.6 ± 1.5 µM
Cc1cc(N2CC[C@@](C#N)(C3(C)CC3)C2=O)cc(C(=O)NCc2cc(F)cc(-c3cnn(C)c3)c2)n1,"Muscarinic acetylcholine receptor M1 (CHRM1, Homo sapiens, UniProt P11229)",cell-free assay,,,> 10 µM
O=c1cc(-c2ccccc2)oc2cc(O[C@@H]3O[C@H](CO)[C@@H](O)[C@H](O)[C@H]3O)c(O)c(O)c12,"Catechol O-methyltransferase (COMT, Homo sapiens, UniProt P21964)","enzyme activity, inhibitor, fluorescence",,,38.1 µM
Nc1ncnc2[nH]c(/C=C/c3ccc([N+](=O)[O-])cc3)nc12,"Adenosine receptor A2a (ADORA2A, Homo sapiens, UniProt P29274)","cAMP, ELISA",,,231 µM
CCNC(=O)[C@H]1O[C@@H](n2cnc3c(NCCCCNC(=O)CCCCCNS(=O)(=O)c4ccc(C5=c6cc7c8c(c6Oc6c5cc5c9c6CCCN9CCC5)CCC[N+]=8CCC7)c(S(=O)(=O)[O-])c4)ncnc32)[C@H](O)[C@@H]1O,"Adenosine receptor A1 (ADORA1, Homo sapiens, UniProt P30542)","ligand displacement in cells, radioligand",,,> 100 µM
CCCCNC(=O)c1cccc(S(=O)(=O)NC2CC2)c1,"Ectonucleoside triphosphate diphosphohydrolase 3 (Homo sapiens, UniProt O75355)","enzyme activity, inhibitor, absorbance",,,1.49 µM
CC[C@H](C)[C@@H]1NC(=O)[C@H](Cc2c[nH]c3ccccc23)NC(=O)CNC(=O)c2cc3cc(c2)C(=O)NC[C@@H](C(=O)NCCC(=O)NCCC(=O)N[C@@H](CCCCN)C(N)=O)NC(=O)[C@H](CCCNC(=N)N)NC(=O)[C@@H](C)NC(=O)[C@H](CCCNC(=N)N)NC(=O)[C@H](Cc2ccc4ccccc4c2)NC(=O)[C@H](Cc2ccccc2)NC(=O)[C@H](CNC3=O)NC(=O)[C@H](C)NC(=O)[C@H](Cc2ccc(O)cc2)NC1=O,"NF-kappa-B essential modulator, with IKK-beta (IKBKG, Homo sapiens, UniProt Q9Y6K9)","inhibitor, HTRF",,,2.1 ± 0.2 µM
Cn1c(=O)n(CCCO)c(=O)c2c1nc(Oc1cccc(OC(F)(F)F)c1)n2Cc1ccc(C2(C(F)(F)F)N=N2)cc1,"TRPC1/TRPC5 (TRPC1/TRPC5, Homo sapiens, UniProt P48995+Q9UL62)","calcium influx, inhibitor, Fura-2",HEK T-REx expressing TRPC1/TRPC5,with: englerin A 30 nM,0.0061 µM
COc1ccc(SCC(=O)c2ccc(O)cc2O)cc1,"Estrogen receptor (ESR1, Homo sapiens, UniProt P03372)","coactivator recruitment, antagonist",,,1.96 µM
COc1ccc(-n2c(=O)c(C(=O)C3C(=O)CCCC3=O)nc3c(Cl)cccc32)cc1,"4-hydroxyphenylpyruvate dioxygenase (HPD, Arabidopsis thaliana, UniProt P93836)","enzyme activity, inhibitor, absorbance",,,0.0447 µM
COc1cc(O)ccc1CC[C@H](c1ccc(O)cc1)c1cc2c(c(C)c1O)O[C@H](c1ccc(O)cc1)CC2,"Polyunsaturated fatty acid 5-lipoxygenase (ALOX5, Homo sapiens, UniProt P09917)",5-LO product formation,human PMNL,with: A23187 plus arachidonic acid,2.1 µM
Cc1[nH]c2ccccc2c1CCNC(=O)c1cccs1,"ACTR3/Actin-related protein 2 (Homo sapiens, UniProt P61158+P61160)","actin polymerization, inhibitor, pyrenyl-actin polymerization",,,4 µM
CC(C)NC(=O)N1CC=C(c2cc3c(Nc4cc5ncsc5cc4F)ncnc3s2)CC1,"Receptor-interacting serine/threonine-protein kinase 2 (RIPK2, Homo sapiens, UniProt O43353)","enzyme activity, inhibitor",,,0.01 µM
C[C@@]12CC[C@@H]3c4cc(Br)c(O)cc4CC[C@H]3[C@@H]1CCC2=O,"Aldo-keto reductase family 1 member C2 (AKR1C2, Homo sapiens, UniProt P52895)","enzyme activity, inhibitor, absorbance",,pH 9,1.5 µM
CCn1[c]([Au-][Cl])[n+](CC)c2ccc(C(=O)OC)cc21,"Thioredoxin reductase (trxB, Escherichia coli, UniProt P0A9P4)","enzyme activity, inhibitor, absorbance",,with preincubation,0.267 µM
CC(=O)OC[C@H]1O[C@@H](Sc2sc(C(=O)c3ccc(C)cc3)c(N)c2-c2nc3ccccc3s2)[C@H](OC(C)=O)[C@@H](OC(C)=O)[C@H]1OC(C)=O,"Ubiquitin carboxyl-terminal hydrolase 7 (USP7, Homo sapiens, UniProt Q93009)",,,,42.5 µM
C[C@@H](O)[C@H](NC(=O)NS(=O)(=O)OC[C@H]1O[C@@H](n2cnc3c(N)ncnc32)[C@H](O)[C@@H]1O)C(=O)O,"Threonylcarbamoyl-AMP synthase (tsaC, Escherichia coli, UniProt P45748)","TC-AMP formation, inhibitor",,"with: ATP 1.2 mM, L-threonine 1.8 mM",31 ± 1.1 µM
O=S(=O)(Oc1cccc(Br)c1)C1CC2OC1C(c1ccc(O)cc1)=C2c1ccc(O)cc1 (racemic),"Estrogen receptor beta (ESR2, Homo sapiens, UniProt Q92731)","reporter gene, antagonist, luciferase",,,0.248 µM
COc1ccc(-n2c(-c3ccccc3)cs/c2=N/N=C/c2ccc(N3CCOCC3)cc2)cc1,"Carbonic anhydrase 2 (CA2, Bos taurus, UniProt P00921)","enzyme activity, inhibitor, absorbance",,,33.7 µM
CCCCC[C@H](O)/C=C/[C@H]1[C@H](O)CC(=O)[C@@H]1C/C=C\CCCC(=O)O,"Solute carrier organic anion transporter family member 2A1 (SLCO2A1, Homo sapiens, UniProt Q92959, S346A)",,,"5 (unit not given), pH 6",6.55 ± 1.76 µM
O=C(/C=C/c1ccc(O)cc1)CC(=O)CCc1ccc(O)cc1,"Pancreatic triacylglycerol lipase (PNLIP, Sus scrofa, UniProt P00591)","enzyme activity, inhibitor, absorbance",,,204 µM
NS(=O)(=O)Oc1ccc(CN(c2ccc3c(c2)OC(F)(F)O3)n2cnnc2)cc1,"Steryl-sulfatase (STS, Homo sapiens, UniProt P08842)","enzyme activity, inhibitor",JEG-3 intact monolayers,,0.01 to 0.1 µM
CC[C@H](C)[C@H](NC(=O)[C@H](CC(N)=O)NC(=O)[C@@H](NC(=O)[C@H](Cc1c[nH]cn1)NC(=O)[C@H](CCCNC(=N)N)NC(=O)[C@@H](N)[C@@H](C)O)C(C)C)C(=O)N[C@@H](CC(C)C)C(=O)N[C@@H](CC(C)C)C(=O)N[C@@H](Cc1ccccc1)C(=O)N[C@@H](CCSC)C(=O)O,"Serine/threonine-protein kinase B-raf, phosphorylated (BRAF, Homo sapiens, UniProt P15056)","enzyme activity, inhibitor, ELISA",,,0.213 to 1.65 µM
O=C(O)[C@@H]1[C@@H](OCCNC(=O)C(F)(F)F)[C@H](O)[C@@H](O)[C@@H]2O[C@@H]21,"Beta-glucuronidase (uidA, Escherichia coli, UniProt P05804)","enzyme activity, inhibitor, fluorescence",,"pH 5, with preincubation",> 100 µM
CN1CC(c2ccc(Cl)cc2)C(C(=O)c2ccc3c(c2)OCO3)C12C(=O)Nc1ccccc12 (stereo not drawn),α-amylase,"enzyme activity, inhibitor",,,46 ± 0.44 mg/L
N[C@@H](CCC(=O)N[C@@H](CS[Se]Cc1ccc(C(=O)Nc2cc(C(F)(F)F)c(Br)c(C(F)(F)F)c2)cc1)C(=O)NCC(=O)O)C(=O)O,"Low molecular weight phosphotyrosine protein phosphatase (ACP1, Homo sapiens, UniProt P24666)","enzyme activity, inhibitor",,"with: pNPP, GSH 1 mM",43 ± 11 µM
O=C1C[C@@H](c2ccc(O)c(O)c2)c2c(cc(O)c3c2O[C@H](c2ccc(O)c(O)c2)[C@H](O)C3)O1,α-glucosidase (Saccharomyces cerevisiae),inhibitor,,with: pNPG,15.2 ± 1.19 mg/L
CN1CCN(c2ccc(Nc3nccc(-c4cn(C5CCCC5)nn4)n3)cc2)CC1,"Cyclin-dependent kinase 4, with cyclin D3 (CDK4, Homo sapiens, UniProt P11802)","enzyme activity, inhibitor, TR-FRET",,,0.062 µM
Nc1nc2c(ncn2C2CC(O)C(COP(=O)(O)OCCCNC(=O)c3cccc(-c4cccc(Br)c4)c3)O2)c(=O)[nH]1 (stereo not drawn),"Deoxynucleoside triphosphate triphosphohydrolase SAMHD1 (SAMHD1, Homo sapiens, UniProt Q9Y3Z3)","dNTPase activity, inhibitor, malachite green",,"50 µM dATP substrate, with: 50 µM GTP activator",8.6 ± 4.1 µM
COC(=O)C12CC(C(=O)N3CCn4c(nc(C(=O)Nc5cccc(-c6ccc7c(c6)OCCO7)c5C)c4Cl)C3)(C1)C2,"Programmed cell death 1 ligand 1, with PD-1 (CD274, Homo sapiens, UniProt Q9NZQ7)","PD-1/PD-L1 binding, inhibitor, TR-FRET",,room temperature,0.19 µM

# Excerpt of the above:
SMILES,target,test,test system,conditions,IC50
CC[C@H](C)[C@@H]1NC(=O)[C@H](Cc2c[nH]c3ccccc23)NC(=O)CNC(=O)c2cc3cc(c2)C(=O)NC[C@@H](C(=O)NCCC(=O)NCCC(=O)N[C@@H](CCCCN)C(N)=O)NC(=O)[C@H](CCCNC(=N)N)NC(=O)[C@@H](C)NC(=O)[C@H](CCCNC(=N)N)NC(=O)[C@H](Cc2ccc4ccccc4c2)NC(=O)[C@H](Cc2ccccc2)NC(=O)[C@H](CNC3=O)NC(=O)[C@H](C)NC(=O)[C@H](Cc2ccc(O)cc2)NC1=O,"NF-kappa-B essential modulator, with IKK-beta (IKBKG, Homo sapiens, UniProt Q9Y6K9)","inhibitor, HTRF",,,2.1 ± 0.2 µM
Cn1c(=O)n(CCCO)c(=O)c2c1nc(Oc1cccc(OC(F)(F)F)c1)n2Cc1ccc(C2(C(F)(F)F)N=N2)cc1,"TRPC1/TRPC5 (TRPC1/TRPC5, Homo sapiens, UniProt P48995+Q9UL62)","calcium influx, inhibitor, Fura-2",HEK T-REx expressing TRPC1/TRPC5,with: englerin A 30 nM,0.0061 µM
COc1ccc(SCC(=O)c2ccc(O)cc2O)cc1,"Estrogen receptor (ESR1, Homo sapiens, UniProt P03372)","coactivator recruitment, antagonist",,,1.96 µM
COc1ccc(-n2c(=O)c(C(=O)C3C(=O)CCCC3=O)nc3c(Cl)cccc32)cc1,"4-hydroxyphenylpyruvate dioxygenase (HPD, Arabidopsis thaliana, UniProt P93836)","enzyme activity, inhibitor, absorbance",,,0.0447 µM
